Assay results of several laboratories.
Compare with care: the assays were run in different laboratories. Numbers after ± are the reported error.
TDP1: Tyrosyl-DNA phosphodiesterase 1 (TDP1, Homo sapiens, UniProt Q9NUW8)
Chain of UniProt Q9NUW8 (whole entry, looked up): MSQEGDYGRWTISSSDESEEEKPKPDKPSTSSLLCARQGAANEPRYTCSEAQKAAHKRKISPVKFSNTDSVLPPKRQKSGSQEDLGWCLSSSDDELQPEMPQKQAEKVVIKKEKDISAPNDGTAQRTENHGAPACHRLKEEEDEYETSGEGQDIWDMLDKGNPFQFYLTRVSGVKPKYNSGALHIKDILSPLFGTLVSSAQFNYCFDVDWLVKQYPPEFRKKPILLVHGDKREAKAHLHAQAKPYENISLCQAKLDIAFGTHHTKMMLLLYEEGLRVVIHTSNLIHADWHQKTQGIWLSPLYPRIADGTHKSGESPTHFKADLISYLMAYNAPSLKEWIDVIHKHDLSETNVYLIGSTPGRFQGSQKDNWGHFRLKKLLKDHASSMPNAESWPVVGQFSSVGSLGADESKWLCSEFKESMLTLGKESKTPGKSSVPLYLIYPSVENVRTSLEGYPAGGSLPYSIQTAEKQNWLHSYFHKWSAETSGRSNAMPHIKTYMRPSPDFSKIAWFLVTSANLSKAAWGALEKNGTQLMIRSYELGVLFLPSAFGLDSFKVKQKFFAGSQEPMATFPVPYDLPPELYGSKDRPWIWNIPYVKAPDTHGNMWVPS

`O=C(O)c1ccc(Nc2c(-c3ccccc3)nc3ccc(CON=Cc4ccc(O)c5ncccc45)cn23)cc1` has an inhibition of 25.6% (TDP1; enzyme activity, inhibitor; 100 µM, unpurified compound).
For `CCCNC(=O)[C@H](Cc1ccc(O)cc1)NC(=O)[C@@H]1Cc2ccc(O)c(c2)-c2cc(ccc2O)[C@@H](NC(=O)[C@@H](NC(=O)[C@H](CC(N)=O)NC(=O)[C@@H](Cc2ccc(O)cc2)NC(=O)[C@@H](CC(C)C)NC)c2ccc(O)cc2)C(=O)N1`, the IC50 was greater than 40 µM (Enterococcus faecalis; bacterial growth).
`CCCCCCCCCC[N+](C)(C)CCCCCCCCCCOc1cc(OCCCCCCCCCC[N+](C)(C)CCCCCCCCCC)cc(OCCCCCCCCCC[N+](C)(C)CCCCCCCCCC)c1.[Br-].[Br-].[Br-]` gave an MIC of 32 µM (Enterococcus faecalis; OG1RF).
`CCCNC(=O)[C@H](Cc1ccc(O)cc1)NC(=O)[C@@H]1Cc2ccc(O)c(c2)-c2cc(ccc2O)C[C@@H](NC(=O)[C@H](CC(N)=O)NC(=O)[C@@H](Cc2ccc(O)cc2)NC(=O)[C@@H](CC(C)C)NC)C(=O)N[C@H](c2ccc(O)cc2)C(=O)N1` gave an IC50 of greater than 40 µM (Enterococcus faecalis; bacterial growth).
`CCCCCCCC[N+](C)(C)CCCCOc1cc(OCCCC[N+](C)(C)CCCCCCCC)cc(OCCCC[N+](C)(C)CCCCCCCC)c1.[Br-].[Br-].[Br-]` gave an MIC of 2 µM (Enterococcus faecalis; OG1RF).
`CCCNC(=O)[C@@H]1Cc2ccc(O)c(c2)-c2cc(ccc2O)C[C@H](NC(=O)[C@H](NC(=O)[C@H](NC(=O)[C@H](CC(N)=O)NC(=O)[C@@H](Cc2ccc(O)cc2)NC(=O)[C@@H](CC(C)C)NC)c2ccccc2)c2ccc(O)cc2)C(=O)N1` has an IC50 of 21 ± 3 µM (Enterococcus faecalis; bacterial growth).
For `c1ccc2c(Cc3c(-c4c[nH]c5ccccc45)[nH]c4ccccc34)c[nH]c2c1`, the IC50 was greater than 50 µM (Enterococcus faecalis; microbial growth, absorbance).
`Cn1nc(C=NOCc2ccc(-c3nc4cc(-c5ccccc5)ccn4c3Nc3ccc(C(=O)O)cc3)cc2)cc1-c1ccccc1` gave an inhibition of 28.2% (TDP1; enzyme activity, inhibitor; 100 µM, unpurified compound).
For `CCCC/C=C/C(=O)N[C@@H](Cc1cc(F)cc(F)c1)C(=O)N[C@@H]1C(=O)N2CCC[C@H]2C(=O)N2CCCC[C@H]2C(=O)N[C@@H](C)C(=O)N2CCC[C@H]2C(=O)O[C@H]1C`, the MIC was less than 0.02 ng/mL (Enterococcus faecalis; microbial growth, broth dilution).
`CCCCCCCCCC[N+](C)(C)CCCCOc1cc(OCCCC[N+](C)(C)CCCCCCCCCC)cc(OCCCC[N+](C)(C)CCCCCCCCCC)c1.[Br-].[Br-].[Br-]` has an MIC of 1 µM (Enterococcus faecalis; OG1RF).
The IC50 of `c1ccc2c(Cc3c[nH]c4ccccc34)c[nH]c2c1` is reported as greater than 50 µM (Enterococcus faecalis; microbial growth, absorbance).
With `CCCCC=CC(=O)NC(Cc1cc(F)cc(F)c1)C(=O)NC1COC(=O)C2CCCN2C(=O)C(C)NC(=O)C(C)N(C)C(=O)C2CCCN2C1=O` (centres unmarked) the MIC was 12 ng/mL (Enterococcus faecalis; microbial growth, broth dilution).
`CN[C@H](CC(C)C)C(=O)N[C@H]1C(=O)N[C@@H](CC(N)=O)C(=O)N[C@H]2C(=O)N[C@H]3C(=O)N[C@H](C(=O)N[C@H](C(=O)O)c4cc(O)cc(O)c4-c4cc3ccc4O)[C@H](O)c3ccc(c(Cl)c3)Oc3cc2cc(c3O[C@@H]2O[C@H](CO)[C@@H](O)[C@H](O)[C@H]2O[C@H]2C[C@](C)(NCc3ccc(-c4ccc(Cl)cc4)cc3)[C@H](O)[C@H](C)O2)Oc2ccc(cc2Cl)[C@H]1O` has an MIC of 5000 ng/mL (Enterococcus faecalis; VanA VRE BM_4166; no LTA, with: Mg2+ 100 µg/mL).
`O=Cc1c[nH]c2ccccc12` gave an IC50 of greater than 50 µM (Enterococcus faecalis; microbial growth, absorbance).
With `CCCCCCCCCC[N+](C)(C)CCCCCCOc1cc(OCCCCCC[N+](C)(C)CCCCCCCCCC)cc(OCCCCCC[N+](C)(C)CCCCCCCCCC)c1.[Br-].[Br-].[Br-]` the MIC was 1 µM (Enterococcus faecalis; OG1RF).
`c1ccc2c([C+](c3c[nH]c4ccccc34)c3c[nH]c4ccccc34)c[nH]c2c1` gave an IC50 of greater than 50 µM (Enterococcus faecalis; microbial growth, absorbance).
`CCCCCCn1cc[n+](CCCCCCCCOc2cc(OCCCCCCCC[n+]3ccn(CCCCCC)c3)cc(OCCCCCCCC[n+]3ccn(CCCCCC)c3)c2)c1.[Br-].[Br-].[Br-]` has an MIC of 1 µM (Enterococcus faecalis; OG1RF).

Excerpt of the above:
For `CCCNC(=O)[C@H](Cc1ccc(O)cc1)NC(=O)[C@@H]1Cc2ccc(O)c(c2)-c2cc(ccc2O)[C@@H](NC(=O)[C@@H](NC(=O)[C@H](CC(N)=O)NC(=O)[C@@H](Cc2ccc(O)cc2)NC(=O)[C@@H](CC(C)C)NC)c2ccc(O)cc2)C(=O)N1`, the IC50 was greater than 40 µM (Enterococcus faecalis; bacterial growth).
`CCCCCCCCCC[N+](C)(C)CCCCCCCCCCOc1cc(OCCCCCCCCCC[N+](C)(C)CCCCCCCCCC)cc(OCCCCCCCCCC[N+](C)(C)CCCCCCCCCC)c1.[Br-].[Br-].[Br-]` gave an MIC of 32 µM (Enterococcus faecalis; OG1RF).
